# Values quoted from earlier work, collected from citations in different studies.
# Each line is one published result; not all experiments were run side by side. ± gives the spread as reported.
# Organism: Trypanosoma cruzi
SMILES,system,setting,endpoint,value
O=C(c1ccc(O)c(O)c1)N1CCN(Cc2ccccc2)CC1,amastigotes,,IC50,28.2 ± 3.8 µM
COC(=O)CCn1c2ccc([N+](=O)[O-])cc2c(=O)n1Cc1ccccc1,,"concentration not given, epimastigotes",antiparasitic activity,active
O=C(Nc1cc2nc(-c3ccc(F)c(F)c3)cn2cn1)N1CC[C@H](F)C1,,,EC50,0.09 µM
COc1cc(O)c(-c2ccc(OC)c3c(O)cc(C)c(-c4cc(-c5c(O)cc(OC)c6c5C[C@H](C)N(C)[C@@H]6C)c5cc(C)cc(OC)c5c4O)c23)c2c1[C@@H](C)N(C)[C@H](C)C2,Tulahuen C4,amastigotes,IC50,2.98 µM
COC(=O)Cn1c2ccc([N+](=O)[O-])cc2c(=O)n1Cc1ccccc1,,"concentration not given, epimastigotes",antiparasitic activity,active
Cc1c(C(=O)N/N=C/c2c(-c3ccccc3)no[n+]2[O-])nc2ccccn12,amastigote,,IC50,56.2 µM
O=C(/C=C/c1ccc(O)c(O)c1)N1CCN(Cc2ccccc2)CC1,"Y strain, trypomastigotes",,IC50,46.4 ± 0.9 µM
O=[N+]([O-])c1ccc(/C=N/N=C/c2ccc([N+](=O)[O-])o2)cc1,"CL, intracellular amastigotes",,IC50,0.78 ± 0.01 µM
